Results from different studies.
Every numbered part comes from another study and shows a few of its results, in no order.

Sample 1 — technique: RNA Bind-n-Seq; molecule type: RNA; matrix: in vitro; tested at: 200 nM; notes: whole 134-nt RNA, ends assumed; added: 150 mM LiCl; baseline: input library; direction: higher = stronger binding; library: 7-deaza-guanosine replaces G
Target: Fragile X messenger ribonucleoprotein 1, C-terminal low-complexity region (Fmr1, Mus musculus, UniProt P35922)
All sequences stand within: GGGAGUUCUACAGUCCGACGAUC … UGGAAUUCUCGGGUGUCAAGG
Strand	log2 enrichment
ACCAUGCAGGUGGGCAUCUUUGGGAAGUGGGGCAAGGGGGGGAUAGGGAGUGGGGUAACACUUUGGGAACAGGUGGUCCCAGGUCGUUUC	1.06
UCAAGUCCUGUGCUACACAUCGUAUGUACCGAAUCGGAAAGGUUUUUUUGGAGGAAAGUAUUAUGUUACGCCGUUCGGAUCUGCACUUCC	-0.832
CCUCAAGUCCUGUGCUACACAUCGUAUGUACCGAAUCGGUGGAAAAAGGAGGAAAGUAUUAUGUUACGCCGUUCGGAUCUGCACUUCCAG	0.216
UUUUGAGGAAAGGAUGAAGGAGCUCAGAGAAGAGGUAAGGGUCUCCUAUCCUUCCCCUCUCCCCCAGAUUUGAGUUUUAUGUUAUGAAUC	-0.394
UCAAGUCCUGUGCUACACAUCGUAUGUACCGAAUCGGCCCGGGCCCGGCCCGGGGAAAGUAUUAUGUUACGCCGUUCGGAUCUGCACUUC	-1.38
AAGUCCUGUGCUACACAUCGUAUGUACCGAAUCGGGGUGGGGUUUGGGGAAAGGGGAAAGUAUUAUGUUACGCCGUUCGGAUCUGCACUU	-1.13
ACCAUGCAGGUGGGCAUCUUUGGGAAGUGGGGCAAGCGGGGGAUAGGGAGGGGGGUAACACUUUGGGAACAGGUGGUCCCAGGUCGUUUC	1.09
UUUUACUUCUCCGCCAGGUGCUGUGCUCCAUCAUCGCCGGUACCUUGCACUAUCUCUACCUGGCCACCUUGACCUGGAUGCUGCUGGAGG	0.963

Sample 2 — technique: aptamer microarray, sandwich; molecule type: DNA with 2'F-ANA; matrix: in vitro; tested at: 200 nM; added: Cy3 exosite-II aptamer, 400 nM; direction: higher = stronger binding; strand: GGTTGGTGTGGTTGG
Target: Prothrombin, mature alpha-thrombin (F2, Homo sapiens, UniProt P00734)
Notes: whole 15-mer aptamer, many near background
Modification	mean fluorescence intensity
2'F-ANA at 1 2 4 7 8 9 10 12 13 15	81.1 a.u.
2'F-ANA at 3 7 8 9 10 11 15	497 a.u.
2'F-ANA at 1 3 6 8 9 11 13	234 a.u.
2'F-ANA at 3 4 5 6 9 10 13 14 15	47.7 a.u.
2'F-ANA at 2 4 5 6 7 10 12 13 14	46 a.u.
2'F-ANA at 1 3 6 9 12 13 14	174 a.u.
2'F-ANA at 2 3 5	187 a.u.
2'F-ANA at 2 3 4 6 8 11 12 14 15	245 a.u.
2'F-ANA at 2 3 4 5 8 10 11 13 15	68.5 a.u.
2'F-ANA at 2 3 6 7 8 9 13 15	572 a.u.
2'F-ANA at 4 6 8 10 13 14 15	56.6 a.u.
2'F-ANA at 1 2 3 5 6 7 9 10 12 13 15	50.7 a.u.
2'F-ANA at 4 7 8 11 12 13 15	428 a.u.
2'F-ANA at 1 3 6 8 13 14 15	78.9 a.u.
2'F-ANA at 2 3 4 5 6 10 12 14 15	49.4 a.u.
2'F-ANA at 1 3 5 12 14	45.3 a.u.

Sample 3 — technique: RNA Bind-n-Seq; molecule type: RNA; matrix: in vitro; tested at: 365 nM; baseline: no-protein control; direction: higher = stronger binding
Target: RNA binding protein fox-1 homolog 2, RRM domain, GST-SBP tag (RBFOX2, Homo sapiens, UniProt O43251-10, residues 100-194)
Notes: natural RNA segment, single round, ends assumed
All sequences stand within: GGGAGUUCUACAGUCCGACGAUC … UGGAAUUCUCGGGUGCCAA
Target sequence (chain): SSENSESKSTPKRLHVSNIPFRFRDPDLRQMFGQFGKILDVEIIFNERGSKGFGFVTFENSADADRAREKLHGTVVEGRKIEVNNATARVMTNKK
Strand	RBNS enrichment (R)
CGGUGUAUCCUGGCUUUAGGGGAACCAGGUUCAAGCAGGAAAGGGAUGGACACCAAGAGGUCUUCCCCCCACCCCCAGCUCCCCACCAAUCCCUAUGCUUUCUGAUGCAC	0.436
AAGAAGAGAUUAAAAACUUCGGCUUUGGACAUGUCCACAUUAUGGACUGUCAUCUUAUUUUUAAAAGUCAUUCUUUACGUUUAAAAUUUUAAAAUAAAAACCUUCUGAGG	0.653
ACUGCAGCCAGUCCGUUUCCUUUCUUUAGCCAGCCAUCCUGGUACUGUAGUUUAGGGGUUGAUGGUGGUUGAAAUUGAUUUCUGGCUGGUUACUAAGGUGCCUGCUAGCC	0.601
CAGCCAUAGCACUUACCCAUAGAGACCGCUAGGGUUGGCCGUGCUGUGGUGGGGGAUGGAGGCCUGAGCUCCUUGGAAUCCACUUUUCAUUGUGGGGAGGUCUACUUUAG	0.329
CAGUCAUUUUUAAAGAAAUUCUAUACUUCAUAUACUGUAUAAUGAUUAAAAUAAUAAACCAUUUCAGAAAUAACAGCUUAUUCUUGUUUGAAAAAUGAAAACAUACAUUG	0.484
AGUUUUAGUACGUAUCUGGCUUGUAUGUGGAAGACUAAAAAGUUGAUUUGCUAAAUGUGGUCUUUGCCAACUAAAAUCUGAGAUGCAGCUUUAGACCCUGACACGUGGAU	1.75
CAGUUGGCAGAAGAAAGGCAGGGCAGUGUGUAGUGGAUGGGCAGCCUGCUGGCAGCCUGCAUAGGCCUAGGGCCUCCAUUCUGCCGUAUAUUGAAGAUUUAAAGACAGUG	0.528
UGUACAGAAUAUUUAUUUUUUCUCAAAAUGCAUUUUAACUACUACAUUGGCUGUGCCCAAAUGAGUCCUCUUUGAAUAGAAAGUGAACCCAGGGCAAUGACAGCCAUUCU	1.55

Sample 4 — technique: protein-binding microarray; molecule type: double-stranded DNA, one strand shown; matrix: in vitro; tested at: 250 nM; notes: 60-bp whole probe; added: salmon DNA 0.4 mg/ml; baseline: random background probes; direction: higher = stronger binding; all sequences stand within: GCCTAGCAC … GTCTTGATTCGCTTGACGCTGCTG
Target: Interferon regulatory factor 5, full length, phosphomimetic (IRF5, Homo sapiens, UniProt Q13568-2, residues 1-514, K96S/S451D/S453D/S456D/S462D)
Strand	log fluorescence
GACGGTTCTGGTTTCGGGACGTGCTAG	3.94 z-score
CTGATTTTGCTTTCATTTATGTGCTAG	4.38 z-score
TTAGATATCGGGTGTCGATTAGTGCTA	2.37 z-score
GACGATTTTAGTTTCGAGACGTGCTAG	7.51 z-score
AGGCTCATACATCTGGGTGGGTGCTAG	-0.345 z-score
TCATATGTAATCATTCACACTGTGCTA	0.872 z-score
GACGCACTGAGTTTCGAGACGTGCTAG	4.04 z-score
GACGATATCAGACTGGGGACGTGCTAG	0.357 z-score
TTAGGTTCTGGTTTCGGTTAGTGCTAG	9.02 z-score
TTAGATATCAGTCTCGATGAGTGCTAG	1.56 z-score
TCAGTTTTACAGGTTCTCACTGTGCTA	0.479 z-score
TGCCCCCACACTCCTAGCACGTGCTAG	-0.233 z-score
GACGGAGTGGACTTTCGGGACGTGCTA	4.53 z-score
GAGGGTCTCGGACTGGGGACGTGCTAG	-0.363 z-score
TTAGATTCCGGTTTCGGTTAGTGCTAG	9.28 z-score
TTAGGTTTCGCTTCCGGTTAGTGCTAG	7.68 z-score
TCACAACTTTTTTTAATACTGTGCTAG	1.01 z-score
GTCGGACTGGGGTATCGGGACGTGCTA	-0.0162 z-score
GACGGTTTCGGTAACGGGACGTGCTAG	8.55 z-score

Excerpt of the above (sample 2):
Modification	mean fluorescence intensity
2'F-ANA at 2 4 5 6 7 10 12 13 14	46 a.u.
2'F-ANA at 1 3 6 9 12 13 14	174 a.u.
2'F-ANA at 2 3 5	187 a.u.
2'F-ANA at 2 3 4 6 8 11 12 14 15	245 a.u.
2'F-ANA at 2 3 4 5 8 10 11 13 15	68.5 a.u.
2'F-ANA at 2 3 6 7 8 9 13 15	572 a.u.
2'F-ANA at 4 6 8 10 13 14 15	56.6 a.u.
